Measurements gathered from unrelated publications.
Every numbered part comes from another study and shows a few of its results, in no order.

Study 1 — method: RNA Bind-n-Seq; molecule type: RNA; medium: in vitro; concentration: 1 µM; notes: whole 134-nt RNA, ends assumed; together with: 150 mM KCl; relative to: input library; reading: higher = stronger binding
Target: Ras GTPase-activating protein-binding protein 1, RRM domain (G3BP1, Homo sapiens, UniProt Q13283)
Chain of UniProt Q13283 (whole entry, looked up): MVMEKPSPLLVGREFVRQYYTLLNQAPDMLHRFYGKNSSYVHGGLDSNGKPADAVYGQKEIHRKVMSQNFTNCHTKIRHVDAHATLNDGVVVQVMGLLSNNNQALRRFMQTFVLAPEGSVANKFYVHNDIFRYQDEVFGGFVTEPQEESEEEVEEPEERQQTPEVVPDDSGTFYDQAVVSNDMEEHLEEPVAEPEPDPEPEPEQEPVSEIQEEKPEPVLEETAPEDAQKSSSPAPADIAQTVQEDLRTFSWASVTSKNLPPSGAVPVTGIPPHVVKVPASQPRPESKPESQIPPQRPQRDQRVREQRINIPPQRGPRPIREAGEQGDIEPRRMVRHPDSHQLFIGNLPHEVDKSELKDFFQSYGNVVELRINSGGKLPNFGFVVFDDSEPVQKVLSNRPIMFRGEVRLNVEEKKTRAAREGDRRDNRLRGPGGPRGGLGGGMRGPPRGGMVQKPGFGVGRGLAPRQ
Shared flanks, not repeated: GGGAGUUCUACAGUCCGACGAUC … UGGAAUUCUCGGGUGUCAAGG
| Sequence | log2 enrichment |
| --- | --- |
| UGGCCCUGGUGGCAUGCGGGGAGGAAGAGGUGGCCUCAUGGAUCGUCGUGGUCCCGGUGGAAUGUUCAGAGGUGGCCGUGGUGGAGACAG | 0.782 |
| UGGGAGGUGGAUUUUGUUUAUUUUUUUAGCUCAUUUACAGGGGUGGGAAUUUUUUUUUAAUAUGUGUCAUGAAUAAAGUUGUUUUUGAAA | 1.58 |
| CAAGUCCUGUGCUACACAUCGUAUGUACCGAAUCGGUUUUGGGUUUUGGGUUUUGGAAAGUAUUAUGUUACGCCGUUCGGAUCUGCACUU | -0.315 |
| UGGCCCUGGUGGCAUGCGGGGAGGAAGAGGUUGCCUCAUGGAUCGUGGUGGUCCCGGUGGAAUGUUCAGAGGUGGCCGUGGUGGAGACAG | 0.729 |
| CAAGUCCUGUGCUACACAUCGUAUGUACCGAAUCGGGGUGGGGAGGGGUUUGGGGAAAGUAUUAUGUUACGCCGUUCGGAUCUGCACUUC | 0.828 |
| UGGCCCUGGUGGCAUGCGGGGAGGAAGUGGUGGCCUCAUGGAUCGUGGUGGUCCCGGUGGAAUGUUCAGAGGUGGCCGUGGUGGAGACAG | 0.698 |
| CUCAAGUCCUGUGCUACACAUCGUAUGUACCGAAUCGGGGUUGGUUGGGGUUGGAAAGUAUUAUGUUACGCCGUUCGGAUCUGCACUUCC | -0.31 |
| UGGGAGGUGGAUUUUGUUUAUUAUUUUAGCUCAUUUCCAGGGGUGGGAAUUUUUUUUUAAUAUGUGUCAUGAAUAAAGUUGUUUUUGAAA | 1.45 |

Study 2 — method: protein-binding microarray; molecule type: double-stranded DNA, one strand shown; medium: in vitro; concentration: 2200 nM top; notes: 60-bp whole probe; together with: salmon DNA 0.4 mg/ml; relative to: random background probes; reading: higher = stronger binding; shared flanks, not repeated: GCCTAGCAC … GTCTTGATTCGCTTGACGCTGCTG
Target: Interferon regulatory factor 7, full length, phosphomimetic (IRF7, Homo sapiens, UniProt Q92985, residues 1-503, S471D/S472D/S475D/S476D/S477D/S483D/S484D/S487D)
Chain of UniProt Q92985 (whole entry, unmodified, looked up): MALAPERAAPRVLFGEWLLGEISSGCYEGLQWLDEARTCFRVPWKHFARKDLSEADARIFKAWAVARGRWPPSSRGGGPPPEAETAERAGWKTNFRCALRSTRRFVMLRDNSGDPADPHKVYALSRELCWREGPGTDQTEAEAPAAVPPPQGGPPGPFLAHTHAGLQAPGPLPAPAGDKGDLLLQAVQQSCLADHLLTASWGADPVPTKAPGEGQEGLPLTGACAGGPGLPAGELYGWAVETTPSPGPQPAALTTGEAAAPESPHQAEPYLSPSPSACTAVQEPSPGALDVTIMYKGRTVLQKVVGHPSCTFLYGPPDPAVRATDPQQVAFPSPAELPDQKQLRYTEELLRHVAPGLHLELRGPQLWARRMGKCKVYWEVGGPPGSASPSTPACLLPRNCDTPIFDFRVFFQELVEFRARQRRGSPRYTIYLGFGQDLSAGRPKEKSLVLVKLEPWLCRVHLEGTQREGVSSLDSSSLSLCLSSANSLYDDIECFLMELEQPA
| Sequence | fitted relative affinity [z-score] |
| --- | --- |
| AGAATGATCTTCCTTCATGGCGTGCTA | 0.225 |
| TGAGTTTTCCTTCATGTGCCGTGCTAG | 1.6 |
| GACGGTTTCGTTATCCTGACGTGCTAG | 7.64 |
| TCAGATGTGTATATGACACTGTGCTAG | 0.308 |
| GCCTTGTTCGTCGCTCCGCTGTGCTAG | 1.31 |
| CAGAATCCAGCTCAGGTTGTGTGCTAG | 0.155 |
| GACGGGTTCGGGTATCGGGACGTGCTA | 0.195 |
| TTAGGGTCCGGTTTCGGTTAGTGCTAG | 6.99 |

Study 3 — method: RNA Bind-n-Seq; molecule type: RNA; medium: in vitro; concentration: 365 nM; relative to: no-protein control; reading: higher = stronger binding
Target: RNA binding protein fox-1 homolog 2, RRM domain, GST-SBP tag (RBFOX2, Homo sapiens, UniProt O43251-10, residues 100-194)
Notes: natural RNA segment, single round, ends assumed
Shared flanks, not repeated: GGGAGUUCUACAGUCCGACGAUC … UGGAAUUCUCGGGUGCCAA
Construct (chain): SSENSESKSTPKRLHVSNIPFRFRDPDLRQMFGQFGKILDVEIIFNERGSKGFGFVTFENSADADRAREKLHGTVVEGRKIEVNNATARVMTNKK
| Sequence | RBNS enrichment (R) |
| --- | --- |
| GAUUGCUCCUGCCUCCCUGCACAAGUCUAUCCGGUGCGGUAUCUAUCAGGUGUGAACUUGGCUGCUAGCGUAUGAACCCAGAUGUGACGCAGAGCCUCUGCAGCGAUCUU | 0.306 |
| GUGUGGCAUGGGUUGAGUGUGGCCACCUGCAGGAUGUGCAGGGCUGCCUCAGAAGCUGGCUGGGGACUCUAGCCUCUGUGUUCAUAAAGACAUUAAGAAGUGGAUGGAUG | 3.96 |
| CAUCAAAGAGAGAAAAGAAUGUGGGGCGAUUCCGCUGCUCCACACCCCCAGCGGCCCAUCCCACACCUCAGCUUCAUGUCUGUCCCAUCCCUAUACCAUCCCACCCUGUU | 0.602 |
| UUUCUGGUGGUCUGUUGGCAGGCUGGCCAGUCCAGGCUGCCGUGGGGCCGCCGCCUCUUUCAAGCAGUCGUGCCUGUGUCCAUGCGCUCAGGGCCAUGCUGAGGCCUGGG | 1.2 |
| AGCUCUCAGCACUGGGUGGGAGGGCGUUGGCUUGUCCAGAAUGGGGACGUGGGGCAGCCACCCCUGCCCAGCGAGAGCGCAGACACCGUGUGAGGGGACAGCAGCCCUUG | 1.94 |
| CUUAUUCCAAAUCCUGUCUUUUCCCCACUAUUCCAUUAGACCCCACAAAUGUUAGUUGUGUGUGUGUGUGUGUGUGUUUUUAAUCACUGUAACCGGAUGCAUUUUUUUAA | 0.818 |
| CCACCUCCUUGCUUUUUCUUUCACUGAUACCACUGAAUGGAACUGGUGCUGUGACUCCUGCUGCUGGGGAUUUAUGUCCCGAGACCUUAGCCUGGCUGAGUGGAGCCUGA | 0.82 |
| CAGAAUCGACCCUUCUCCCAUUGAUCCAUGUCUCCCGUGUCACCAUGGGCAUGGCAUGUGAAGCAAUGUCCUGCAGAUGGAUUACCACCUUUUAUUUCUGCCAGCUAACA | 0.312 |

Mixed results
| Molecule | target | test | test system | setting | how to read | measurement | result |
| --- | --- | --- | --- | --- | --- | --- | --- |
| PhoQ, residues 284 288 289 292 302 303 AGHLVA | PhoP, residues 12 14 15 18 19 NHFRA (Escherichia coli, UniProt P23836) | Sort-seq, refers to: YFP reporter | E. coli | PhoQ-PhoP variant library, together with: 10 µM Mg2+ | relative to: high Mg2+ state, higher = stronger signaling | fold induction | 0.84 |

For quick reference, copied from above (study 1):
| Sequence | log2 enrichment |
| --- | --- |
| CAAGUCCUGUGCUACACAUCGUAUGUACCGAAUCGGGGUGGGGAGGGGUUUGGGGAAAGUAUUAUGUUACGCCGUUCGGAUCUGCACUUC | 0.828 |
| UGGCCCUGGUGGCAUGCGGGGAGGAAGUGGUGGCCUCAUGGAUCGUGGUGGUCCCGGUGGAAUGUUCAGAGGUGGCCGUGGUGGAGACAG | 0.698 |
| CUCAAGUCCUGUGCUACACAUCGUAUGUACCGAAUCGGGGUUGGUUGGGGUUGGAAAGUAUUAUGUUACGCCGUUCGGAUCUGCACUUCC | -0.31 |
